{"data": "Measured values collected from several papers", "note": "Each numbered part is a random draw from the data of one study; scales do not carry over between parts.", "chain of UniProt Q9Y616 (whole entry, looked up)": "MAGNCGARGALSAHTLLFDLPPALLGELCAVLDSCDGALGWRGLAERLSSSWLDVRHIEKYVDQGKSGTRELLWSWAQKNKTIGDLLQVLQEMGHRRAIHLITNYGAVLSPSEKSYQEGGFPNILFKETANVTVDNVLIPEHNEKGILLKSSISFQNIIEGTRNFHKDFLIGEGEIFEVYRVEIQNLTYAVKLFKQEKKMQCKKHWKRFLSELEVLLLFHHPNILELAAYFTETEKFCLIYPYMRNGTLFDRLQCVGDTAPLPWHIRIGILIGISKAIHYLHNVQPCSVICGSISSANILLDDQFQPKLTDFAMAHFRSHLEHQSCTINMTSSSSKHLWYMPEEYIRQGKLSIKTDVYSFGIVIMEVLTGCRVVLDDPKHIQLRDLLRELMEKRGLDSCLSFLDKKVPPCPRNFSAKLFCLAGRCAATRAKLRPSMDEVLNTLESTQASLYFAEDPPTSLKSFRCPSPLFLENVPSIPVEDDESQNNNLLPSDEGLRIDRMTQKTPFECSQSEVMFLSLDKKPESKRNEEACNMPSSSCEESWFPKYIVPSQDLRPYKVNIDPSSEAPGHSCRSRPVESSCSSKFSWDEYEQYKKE", "chain of UniProt Q13554 (whole entry, looked up)": "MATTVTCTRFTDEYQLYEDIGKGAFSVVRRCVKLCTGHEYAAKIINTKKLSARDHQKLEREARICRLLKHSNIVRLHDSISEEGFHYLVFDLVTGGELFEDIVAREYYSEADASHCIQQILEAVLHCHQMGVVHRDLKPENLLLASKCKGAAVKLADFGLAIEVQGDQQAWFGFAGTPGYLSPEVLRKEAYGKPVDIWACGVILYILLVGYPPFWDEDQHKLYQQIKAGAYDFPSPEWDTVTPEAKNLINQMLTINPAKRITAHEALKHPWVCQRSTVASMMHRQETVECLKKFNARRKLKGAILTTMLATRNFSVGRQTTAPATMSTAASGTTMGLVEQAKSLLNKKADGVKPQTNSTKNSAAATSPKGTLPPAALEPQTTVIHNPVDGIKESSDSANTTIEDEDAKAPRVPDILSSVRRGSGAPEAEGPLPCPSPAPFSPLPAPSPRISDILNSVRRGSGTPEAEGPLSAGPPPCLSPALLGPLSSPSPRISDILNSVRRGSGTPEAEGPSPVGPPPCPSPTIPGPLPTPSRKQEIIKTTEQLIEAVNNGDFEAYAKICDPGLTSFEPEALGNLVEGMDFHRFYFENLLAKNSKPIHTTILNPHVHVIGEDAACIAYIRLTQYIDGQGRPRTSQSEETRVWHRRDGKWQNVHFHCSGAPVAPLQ", "chain of UniProt P17948 (whole entry, looked up)": "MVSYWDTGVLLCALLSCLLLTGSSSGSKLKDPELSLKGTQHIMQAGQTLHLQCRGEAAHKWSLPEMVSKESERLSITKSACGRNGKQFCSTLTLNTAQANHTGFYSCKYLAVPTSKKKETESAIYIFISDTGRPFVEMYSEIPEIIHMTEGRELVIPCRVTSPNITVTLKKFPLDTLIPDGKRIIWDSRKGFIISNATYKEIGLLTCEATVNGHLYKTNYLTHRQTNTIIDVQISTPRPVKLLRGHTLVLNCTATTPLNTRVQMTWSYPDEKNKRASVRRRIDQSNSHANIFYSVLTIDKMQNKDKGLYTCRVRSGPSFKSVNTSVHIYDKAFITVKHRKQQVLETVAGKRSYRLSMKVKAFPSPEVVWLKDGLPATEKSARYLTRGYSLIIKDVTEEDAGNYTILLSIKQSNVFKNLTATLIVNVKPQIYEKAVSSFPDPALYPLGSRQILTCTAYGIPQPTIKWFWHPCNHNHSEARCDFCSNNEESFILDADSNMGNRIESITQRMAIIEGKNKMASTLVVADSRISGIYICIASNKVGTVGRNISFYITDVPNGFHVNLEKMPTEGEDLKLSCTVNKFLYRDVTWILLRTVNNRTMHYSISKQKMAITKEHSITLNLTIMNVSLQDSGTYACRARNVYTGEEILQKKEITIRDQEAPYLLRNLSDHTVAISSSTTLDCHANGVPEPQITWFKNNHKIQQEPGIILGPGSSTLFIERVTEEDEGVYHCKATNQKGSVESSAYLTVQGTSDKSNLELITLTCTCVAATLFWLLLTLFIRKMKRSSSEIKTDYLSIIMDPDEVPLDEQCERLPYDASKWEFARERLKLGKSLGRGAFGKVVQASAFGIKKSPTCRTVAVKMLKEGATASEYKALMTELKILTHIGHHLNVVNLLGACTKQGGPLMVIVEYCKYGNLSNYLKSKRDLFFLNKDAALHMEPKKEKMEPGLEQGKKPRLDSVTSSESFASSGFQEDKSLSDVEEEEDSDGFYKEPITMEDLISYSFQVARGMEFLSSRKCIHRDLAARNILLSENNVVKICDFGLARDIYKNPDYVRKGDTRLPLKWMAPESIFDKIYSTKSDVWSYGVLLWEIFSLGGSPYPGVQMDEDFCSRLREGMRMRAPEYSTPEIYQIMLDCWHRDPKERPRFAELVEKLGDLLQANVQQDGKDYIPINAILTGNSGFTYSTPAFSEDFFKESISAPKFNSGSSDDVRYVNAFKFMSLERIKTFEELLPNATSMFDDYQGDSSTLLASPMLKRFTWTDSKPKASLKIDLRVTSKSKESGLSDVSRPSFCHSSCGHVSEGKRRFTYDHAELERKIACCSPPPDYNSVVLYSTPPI", "chain of UniProt Q9BUB5 (whole entry, looked up)": "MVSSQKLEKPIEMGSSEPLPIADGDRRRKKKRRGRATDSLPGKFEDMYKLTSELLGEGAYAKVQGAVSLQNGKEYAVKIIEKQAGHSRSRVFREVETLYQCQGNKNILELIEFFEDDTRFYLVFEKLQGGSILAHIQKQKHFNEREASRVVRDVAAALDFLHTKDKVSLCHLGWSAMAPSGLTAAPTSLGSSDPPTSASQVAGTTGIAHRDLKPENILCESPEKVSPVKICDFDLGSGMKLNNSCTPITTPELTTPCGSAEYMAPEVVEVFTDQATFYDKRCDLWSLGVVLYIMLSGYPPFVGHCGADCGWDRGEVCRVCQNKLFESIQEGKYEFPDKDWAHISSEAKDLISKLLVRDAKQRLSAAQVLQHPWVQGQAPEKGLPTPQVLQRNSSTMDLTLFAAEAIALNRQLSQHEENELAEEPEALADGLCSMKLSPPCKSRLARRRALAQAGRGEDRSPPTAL"}
{"data": "Study 1", "target": "Calcium/calmodulin-dependent protein kinase type II subunit alpha (CAMK2A, Homo sapiens, UniProt Q9UQM7)", "observed": "enzyme activity", "action": "inhibitor", "concentration": "10 µM", "chain of UniProt Q9UQM7 (whole entry, looked up)": "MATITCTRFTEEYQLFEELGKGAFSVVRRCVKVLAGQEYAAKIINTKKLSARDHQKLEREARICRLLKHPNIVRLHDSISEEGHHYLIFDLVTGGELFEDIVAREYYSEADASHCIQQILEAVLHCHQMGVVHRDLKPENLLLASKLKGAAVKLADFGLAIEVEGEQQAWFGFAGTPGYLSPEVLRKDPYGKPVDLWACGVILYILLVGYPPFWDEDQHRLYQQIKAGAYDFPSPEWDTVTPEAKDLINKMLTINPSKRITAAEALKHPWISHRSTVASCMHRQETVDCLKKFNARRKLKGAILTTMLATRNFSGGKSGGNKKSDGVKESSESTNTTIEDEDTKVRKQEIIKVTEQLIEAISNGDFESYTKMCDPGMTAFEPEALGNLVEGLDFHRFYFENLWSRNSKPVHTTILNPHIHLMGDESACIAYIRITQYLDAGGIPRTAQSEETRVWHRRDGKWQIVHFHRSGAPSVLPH"}
{"Structure (SMILES)": "CC(CO)C(=O)O (centres unmarked)", "inhibition [%]": 28}
{"Structure (SMILES)": "CCCc1nc(C)c2c(O)nc(-c3cc(S(=O)(=O)N4CCN(CC)CC4)ccc3OCC)nn12", "inhibition [%]": -8}
{"Structure (SMILES)": "C=C1C(=O)O[C@@H]2[C@H]3C(C)=CC[C@@]34O[C@@]4(C)CC[C@@H]12", "inhibition [%]": 4}
{"Structure (SMILES)": "Oc1cc(O)cc(/C=C/c2ccccc2)c1", "inhibition [%]": -24}
{"Structure (SMILES)": "Cc1c(O)cc2c(c1C)O[C@](C)(CCC[C@H](C)CCC[C@H](C)CCCC(C)C)CC2", "inhibition [%]": 4}
{"data": "Study 2", "target": "Ephrin type-B receptor 1 (EPHB1, Homo sapiens, UniProt P54762)", "observed": "enzyme activity", "action": "inhibitor", "concentration": "0.5 µM", "relative to": "control", "chain of UniProt P54762 (whole entry, looked up)": "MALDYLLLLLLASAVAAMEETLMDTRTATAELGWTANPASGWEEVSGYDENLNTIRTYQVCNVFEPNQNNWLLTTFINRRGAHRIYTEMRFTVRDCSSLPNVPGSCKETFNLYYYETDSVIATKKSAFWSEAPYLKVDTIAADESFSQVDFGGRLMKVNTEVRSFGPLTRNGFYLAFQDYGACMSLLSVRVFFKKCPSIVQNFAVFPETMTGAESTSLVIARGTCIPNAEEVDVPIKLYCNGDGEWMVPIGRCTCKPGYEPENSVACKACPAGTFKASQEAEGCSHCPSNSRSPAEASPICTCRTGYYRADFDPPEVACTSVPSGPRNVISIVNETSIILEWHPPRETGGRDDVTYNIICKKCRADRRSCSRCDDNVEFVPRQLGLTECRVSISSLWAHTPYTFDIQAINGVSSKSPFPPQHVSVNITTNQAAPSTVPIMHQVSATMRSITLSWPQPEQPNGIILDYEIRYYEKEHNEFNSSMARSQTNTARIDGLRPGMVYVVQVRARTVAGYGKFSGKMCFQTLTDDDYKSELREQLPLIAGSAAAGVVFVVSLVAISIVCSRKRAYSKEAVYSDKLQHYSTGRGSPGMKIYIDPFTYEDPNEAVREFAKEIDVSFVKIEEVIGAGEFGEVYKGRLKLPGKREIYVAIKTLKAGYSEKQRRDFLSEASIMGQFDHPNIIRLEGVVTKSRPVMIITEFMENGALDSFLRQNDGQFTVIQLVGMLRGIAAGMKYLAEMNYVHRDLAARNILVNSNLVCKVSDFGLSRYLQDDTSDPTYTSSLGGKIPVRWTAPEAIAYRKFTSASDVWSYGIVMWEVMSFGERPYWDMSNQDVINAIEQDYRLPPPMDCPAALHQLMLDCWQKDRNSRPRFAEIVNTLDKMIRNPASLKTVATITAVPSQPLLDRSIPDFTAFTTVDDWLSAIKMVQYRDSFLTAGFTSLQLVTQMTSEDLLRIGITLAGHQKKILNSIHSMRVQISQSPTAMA"}
{"Structure (SMILES)": "O=c1c2ccccc2[nH]c(=S)n1CCN1CCC(=C(c2ccc(F)cc2)c2ccc(F)cc2)CC1", "remaining activity": "100%"}
{"Structure (SMILES)": "Cc1ccc(NC(=O)c2ccc(CN3CCN(C)CC3)cc2)cc1Nc1nc(-c2cccnc2)cs1", "remaining activity": "94.9%"}
{"Structure (SMILES)": "O=C(Nc1cccc(Nc2cc(Nc3cccc(C(F)(F)F)c3)ncn2)c1)C1CC1", "remaining activity": "100%"}
{"Structure (SMILES)": "Oc1ccc(-c2nc(-c3ccncc3)c(-c3ccc(F)cc3)[nH]2)cc1", "remaining activity": "96.8%"}
{"Structure (SMILES)": "COc1cc2nccc(Oc3ccc(NC(=S)NC(=O)c4ccccc4C)cc3)c2cc1OC", "remaining activity": "98.5%"}
{"Structure (SMILES)": "NCCNc1ncc(C(N)=O)c(Nc2cccc(C(F)(F)F)c2)n1", "remaining activity": "86.9%"}
{"Structure (SMILES)": "O=C1NC(=O)C(c2cn(CCCn3ccnc3)c3ccccc23)=C1Nc1ccccc1", "remaining activity": "102%"}
{"Structure (SMILES)": "N#CC(C#N)=C(N)/C(C#N)=C/c1ccc(O)cc1", "remaining activity": "88.3%"}
{"Structure (SMILES)": "COc1cc2ncnc(Nc3ccc(F)c(Cl)c3)c2cc1OCCCN1CCOCC1", "remaining activity": "94.8%"}
{"Structure (SMILES)": "Cc1ccc(Nc2nccc(N(C)c3ccc4c(C)n(C)nc4c3)n2)cc1S(N)(=O)=O", "remaining activity": "92.2%"}
{"Structure (SMILES)": "COc1ccc(C(=O)Nc2sc3c(c2C(N)=O)CCCC3)cc1OC", "remaining activity": "95%"}
{"Structure (SMILES)": "Cc1cccc(-c2[nH]c(C(C)(C)C)nc2-c2ccc3c(c2)OCO3)n1", "remaining activity": "95.5%"}
{"Structure (SMILES)": "CN(C)c1ccc(C=C2C(=O)Nc3ccccc32)cc1", "remaining activity": "102%"}
{"data": "Study 3", "SMILES": "Cc1c(NC(=O)c2cc(C(N)=O)nc3cc(F)ccc23)c(C(F)(F)F)nn1Cc1ccc(C#N)cc1", "observed": "cell-free assay", "technique": "competition with immobilised ligand", "concentration": "1 µM"}
{"target": "Receptor-type tyrosine-protein kinase FLT3 (FLT3, Homo sapiens, UniProt P36888, K663Q)", "remaining binding": "93%"}
{"target": "Interleukin-1 receptor-associated kinase 3 (IRAK3, Homo sapiens, UniProt Q9Y616)", "remaining binding": "94%"}
{"target": "Vascular endothelial growth factor receptor 1 (FLT1, Homo sapiens, UniProt P17948)", "remaining binding": "98%"}
{"target": "STE20/SPS1-related proline-alanine-rich protein kinase (STK39, Homo sapiens, UniProt Q9UEW8)", "remaining binding": "94%"}
{"target": "MAP kinase-interacting serine/threonine-protein kinase 1 (MKNK1, Homo sapiens, UniProt Q9BUB5)", "remaining binding": "68%"}
{"target": "Calcium/calmodulin-dependent protein kinase type II subunit beta (CAMK2B, Homo sapiens, UniProt Q13554)", "remaining binding": "90%"}
{"data": "Study 4", "cell line": "mouse MPNST tumor cells", "technique": "high-content nuclear imaging", "refers to": "cell number", "concentration": "10 µM", "time": "12 h", "setting": "mean of 2 replicates", "relative to": "plate mean", "reading": "higher = more cells"}
{"SMILES": "COc1cc(N2CCN(C(C)=O)CC2)ccc1Nc1ncc(Cl)c(Nc2ccc(N3CCN(C(C)=O)CC3)cc2OC)n1", "nuclei count [z-score]": -1.35}
{"SMILES": "CC(C)(CN)c1nc(-c2ccc(Cl)c(O)c2)c(-c2ccncc2)[nH]1", "nuclei count [z-score]": -0.907}
{"SMILES": "CC1(C)C(=O)C(C)(C)c2cc(C(=O)Nc3ccc(C(=O)O)cc3)ccc21", "nuclei count [z-score]": -0.284}
{"SMILES": "CCc1ccc2c(-c3cccc(Cl)c3)nc(=O)n(CC)c2n1", "nuclei count [z-score]": 1.87}
{"SMILES": "C#C[C@]1(O)CC[C@H]2[C@@H]3CCC4=CCCC[C@@H]4[C@H]3CC[C@@]21C", "nuclei count [z-score]": 1.73}
{"note": "Some of these lines once more (study 4):"}
{"SMILES": "CC1(C)C(=O)C(C)(C)c2cc(C(=O)Nc3ccc(C(=O)O)cc3)ccc21", "nuclei count [z-score]": -0.284}
{"SMILES": "C#C[C@]1(O)CC[C@H]2[C@@H]3CCC4=CCCC[C@@H]4[C@H]3CC[C@@]21C", "nuclei count [z-score]": 1.73}
{"SMILES": "CCc1ccc2c(-c3cccc(Cl)c3)nc(=O)n(CC)c2n1", "nuclei count [z-score]": 1.87}
{"SMILES": "CC(C)(CN)c1nc(-c2ccc(Cl)c(O)c2)c(-c2ccncc2)[nH]1", "nuclei count [z-score]": -0.907}
{"SMILES": "COc1cc(N2CCN(C(C)=O)CC2)ccc1Nc1ncc(Cl)c(Nc2ccc(N3CCN(C(C)=O)CC3)cc2OC)n1", "nuclei count [z-score]": -1.35}
